Assay results pooled from the literature.
Numbered parts are unrelated; each lists some results of a single study. Changes are numbered by the printed parent chain.

Study 1
Target: POU domain, class 5, transcription factor 1, POU domain (Pou5f1, Mus musculus, UniProt P20263, residues 131-289)
Sequence of UniProt P20263 (131-289, looked up): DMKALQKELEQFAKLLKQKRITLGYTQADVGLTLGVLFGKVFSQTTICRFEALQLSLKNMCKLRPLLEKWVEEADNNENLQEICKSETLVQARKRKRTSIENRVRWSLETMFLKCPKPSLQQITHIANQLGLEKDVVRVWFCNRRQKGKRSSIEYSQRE
Method: Spec-seq
Molecule type: double-stranded DNA, one strand shown
Medium: in vitro
Tested at: not given
Notes: whole probe, mean of replicates
Relative to: not given
Direction: lower = stronger binding
Shared flanks, not repeated: GAGTCGTCTCGTCAGCAC … CCGTAGAGCACTCAGGTC
Sequence | relative binding energy
TTCTTAAT | 0.549 ln ratio
ATTTCGAT | 0.461 ln ratio
ATAAAAAT | -0.0231 ln ratio
CACGTAAT | 0.813 ln ratio
ATGCTCTA | 0.616 ln ratio
CCCGTAAT | 0.645 ln ratio
ATGCTGGG | 0.661 ln ratio
ATTGTGAT | 0.42 ln ratio

Study 2
Target: OGT, full length, His-tagged (human)
Method: phage display, sequencing
Medium: in vitro
Tested at: 1 µg OGT
Notes: single substitutions, 15-mer displayed peptide, unchanged parent 16.7
Relative to: input library
Direction: higher = stronger binding
Parent: peptide; NSEYMPQYQIIFAHQ
Variant | fold enrichment
Y8G | 0.716 fold
A13P | 34.4 fold
M5I | 6.72 fold
E3V | 14.4 fold
F12M | 5.75 fold
F12K | 1.01 fold
Q9M | 14 fold
Y4M | 0.836 fold

Further values, each from its own experiment
P1: viral docking peptide; KKAKRRLFTISDS; partner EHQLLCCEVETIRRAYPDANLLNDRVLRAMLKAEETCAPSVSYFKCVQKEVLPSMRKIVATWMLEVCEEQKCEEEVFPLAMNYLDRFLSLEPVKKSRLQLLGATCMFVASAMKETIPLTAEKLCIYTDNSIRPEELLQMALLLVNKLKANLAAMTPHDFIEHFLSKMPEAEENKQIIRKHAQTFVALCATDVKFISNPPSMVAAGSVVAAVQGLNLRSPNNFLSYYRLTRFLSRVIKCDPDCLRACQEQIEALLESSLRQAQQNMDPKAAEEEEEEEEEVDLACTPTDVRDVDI
Substance | target | test | test system | conditions | how to read | endpoint | value
PhoQ, residues 284 288 289 292 302 303 NSMLDC | PhoP, residues 12 14 15 18 19 LHTVM (Escherichia coli, UniProt P23836) | Sort-seq, refers to: YFP reporter | E. coli | PhoQ-PhoP variant library, with: 10 µM Mg2+ | relative to: high Mg2+ state, higher = stronger signaling | fold induction | 16.3
P1 D12A | CCND1, cyclin fold, Cln2 fusion (human) | yeast growth competition, sequencing | yeast | weak parent motif | relative to: not given, higher = stronger binding | normalised enrichment score | 0.0746
